# Published values gathered from unrelated publications.
# Compare with care: the assays were run in different laboratories. ± marks the error that the study gave.
SMILES,cell line,test,setting,IC50
C=CC(OC(C)=O)c1ccc(OC)cc1 (centres unmarked),HMEC,MTT,24 h,> 50 µM
Cc1c(OCc2ccccc2)c(=O)ccn1CCCOC(=O)c1ccc(Cl)cc1,fibroblast cells,"cell viability, MTT",48 h,85 mg/L
O=C(O)Cc1ccccc1Nc1c(Cl)cccc1Cl.O=C(O)Cc1ccccc1Nc1c(Cl)cccc1Cl.c1cnc2c(c1)ccc1cccnc12.c1cnc2c(c1)ccc1cccnc12,CAL-27,"cytotoxicity, MTT",,3.87 ± 0.04 µM
COc1ccc(-n2cc(C(=O)OC3CC4(C)C(CC(O)C5C(C6(C)CCCC(C)(C)O6)CCC54C)C4(C)CCC(O)C(C)(C)C34)nn2)cc1 (centres unmarked),Hep3B,"HRE reporter gene, inhibitor","24 h, hypoxia",> 30 µM
CN(C)c1ccc(-c2nc3ccccn3c2Nc2ccc(C(=O)NO)cc2)cc1,CAL-27,"HDAC activity, inhibitor, whole-cell",,14 µM
NC(CSSCC(N)C(=O)N1CCn2cc(-c3ccccc3)nc2C1CC1CCCCC1)C(=O)N1CCn2cc(-c3ccccc3)nc2C1CC1CCCCC1 (centres unmarked),92.1 GNAQ Q209L,cell growth,72 h,9.7 ± 0.1 µM
O=C(/C=C/c1ccc(O)c(O)c1)c1ccc(O)cc1O,human cells,"NF-κB reporter gene, inhibitor",added: TNF-alpha,38 µM
CCCC[C@@H]1NC(=O)CN(S(C)(=O)=O)CCNC(=O)[C@H](CCCCN)NC(=O)[C@H](CC(C)C)NC(=O)[C@H](CCCCN)NC(=O)[C@H](CC(C)C)NC(=O)[C@H](CCCCN)NC(=O)COC[C@H]2CCCN2C(=O)[C@H](Cc2c[nH]c3ccccc23)NC(=O)[C@H](C)NC(=O)[C@H]([C@@H](C)CC)NC(=O)[C@H](C(C)C)NC1=O,NCI-H929,"viability, TO-PRO-3 staining, flow cytometry",,9.1 µM
O=c1[nH]c2ccccc2nc1/C=C/c1ccccc1Br,HeLa 229,"cell growth or viability, MTT",72 h,> 50 µM
COc1cc(CN2CCN(c3ccc([N+](=O)[O-])cc3)CC2)c2cc3[n+](cc2c1O)CCc1cc2c(cc1-3)OCO2,Ca-Ski,"cell growth or viability, SRB",48 h,4.56 mg/L
COC(=O)c1ccc(C[Se]CC2C(=O)C34C(O)C2CCC3C23COC4(O)C(O)C2C(C)(C)CCC3O)cc1 (centres unmarked),normal cells,,,> 50 µM
C[C@]12CC/C(=N\OCCN3CCOCC3)C=C1CCC1C2CC[C@]2(C)/C(=C/c3ccccn3)CCC12 (some centres unmarked),CEM,"cytotoxicity, alamarBlue",72 h,21.9 µM
COc1cc(CC(=O)N2CC(=O)N[C@@H](Cc3ccccc3)CN(C(=O)Cc3ccc4ccccc4c3)CC(=O)N[C@@H](CCCCN)CN(C(=O)Cc3ccc4c(c3)OCO4)CC(=O)N[C@@H](CCCCN)CN(CC(N)=O)C(=O)CCSCc3ccc(cc3)C(=O)N[C@@H](CC(C)C)C2)cc(OC)c1,SK-BR-3,"western blot, refers to: phospho-AKT",4 h,16.9 µM
CC1(C)CCCC(C)(C2CCC3(C)C2C(O)CC2C4(C)CCC(OC(=O)c5cn(-c6ccccc6)nn5)C(C)(C)C4C(OC(=O)c4cn(-c5ccccc5)nn4)CC23C)O1 (centres unmarked),Hep3B,"HRE reporter gene, inhibitor","24 h, hypoxia",> 30 µM
CCCC[C@@H]1NC(=O)CN(S(C)(=O)=O)CCNC(=O)[C@H](CCCCN)NC(=O)[C@H](CC(C)C)NC(=O)[C@H](CCCCN)NC(=O)[C@H](CC(C)C)NC(=O)[C@H](CCCCN)NC(=O)COC[C@H]2CCCN2C(=O)[C@H](Cc2c[nH]c3ccccc23)NC(=O)[C@H](C)NC(=O)[C@H](C(C)C)NC(=O)[C@H](C(C)C)NC1=O,NCI-H929,"viability, TO-PRO-3 staining, flow cytometry",,1.2 µM
Cc1ccc(CN2C(=O)/C(=N\c3ccc(Cl)cc3Br)c3ccccc32)cc1,B16,"cell growth or viability, MTT",48 h,0.26 µM
Clc1ccc(C=[N+]2N=C(Nc3ccccc3)[S][Pd-]2([Cl])[Cl])s1,MDCK,cell proliferation,,> 100 µM
COc1ccc(C(c2c[nH]c3ccc(Br)cc23)c2c[nH]c3ccc(Br)cc23)cc1,B16,"cell growth or viability, MTT",24 h,4.4 µM
C[N+]1(C)CC[NH2+][Pt-2]1([OH])([OH])([Cl])[Cl],P31,"cell viability, EZ4U",96 h,63 ± 2 µM
C1=[N+]2CCCC[N+]3=Cc4ccc5[n]4[Au-]23[n]2c1ccc2-c1nc2ccccc2nc1-5.F[P-](F)(F)(F)(F)F,colon cancer cell lines,,NCI60 panel mean,10 µM
CCN(CC)CCO/N=C1/C=C2CCC3C(CC[C@]4(C)/C(=C/c5ccccn5)CCC34)[C@@]2(C)CC1 (some centres unmarked),CEM,"cytotoxicity, alamarBlue",72 h,23.8 µM
COc1cc(C(=O)N2CC[C@@H](O)[C@@H](N)C2)cc2nc(-c3cc4cccnc4n3CC3CC3)n(C)c12,human neutrophils,"protein citrullination, flow cytometry, refers to: citrullinated histone H3",added: ionomycin 5 µM,1.1 µM
O=C1/C(=C(\O)CCc2ccccc2)C(=O)[C@@]2(C(=O)OCc3ccccc3)CS[C@H](c3ccccc3)N12,MDCK,"cell growth or viability, resazurin",,31.3 mg/L
COc1cc(OC)c(-c2coc3c(CC=C(C)C)c(OC)cc(O)c3c2=O)cc1OC,Huh-7,"cell growth or viability, MTT",24 h,> 100 µM
[Cl][Pt-]1([Cl])[S]C(Nc2ccccc2)=N[N+]1=Cc1ccc(-c2ccccc2)s1,MDCK,cell proliferation,,60.7 µM
COc1cc(CN2CCN(c3ccccc3F)CC2)c2cc3[n+](cc2c1O)CCc1cc2c(cc1-3)OCO2,Ca-Ski,"cell growth or viability, SRB",48 h,4.62 mg/L
Oc1ccc(C(=NNc2ccccc2)c2ccc(O)cc2)cc1,NCI-H358,"cell growth or viability, ATP luminescence",72 h,37.6 µM
CCNC(=O)Nc1ccc(S(=O)(=O)Oc2ccccc2CC)cc1,M21,"cell growth or viability, SRB",48 h,5.3 µM
CCCc1nc2ccccn2c1Nc1ccc(C(=O)NO)cc1,CAL-27,"HDAC activity, inhibitor, whole-cell",,27.6 µM
CC1(C)CCCC(C)(C2CCC3(C)C2C(O)CC2C4(C)CCC(O)C(C)(C)C4C(OC(=O)/C=C\c4ccc(Cl)cc4)CC23C)O1 (centres unmarked),Hep3B,"HRE reporter gene, inhibitor","24 h, hypoxia",6.59 ± 0.11 µM
CC(C)[C@@H]1CC[C@@H](C)C[C@H]1OC(=O)Cn1c(-c2cccc(C(F)(F)F)c2)[n+](C)c2ccccc21,HTS,"cell growth or viability, ATP luminescence",96 h,0.47 µM
NC(=S)NNC(=O)c1cc2ccccc2oc1=O,EA.hy 926,"cell growth or viability, SRB",72 h,20 µM
COc1cc(/C=C/C(=O)c2ccc(O)cc2O)ccc1O,human cells,"NF-κB reporter gene, inhibitor",added: TNF-alpha,38 µM
C#CCOc1ccc(-c2n(CC(=O)O[C@@H]3C[C@H](C)CC[C@H]3C(C)C)c3ccccc3[n+]2C)cc1N=[N+]=[N-],HTS,"cell growth or viability, ATP luminescence",96 h,0.35 µM
CC(C)Cc1ccc(C(C)C(=O)N/N=C/c2ccc(OCC(=O)N/N=C/c3c(O)ccc4ccccc34)cc2)cc1 (centres unmarked),U87 MG,"cytotoxicity, MTT",,52.81 ± 0.06 µM
CC(C)(C)OC(=O)N[C@@H](Cc1c[nH]c2ccccc12)C(=O)OC1CCC2(C)C(C(O)CC3(C)C2CC(O)C2C(C4(C)CCCC(C)(C)O4)CCC23C)C1(C)C (some centres unmarked),Hep3B,"HRE reporter gene, inhibitor","24 h, hypoxia",4.89 ± 0.12 µM
C=C(C)[C@@H]1CC[C@]2(C(=O)O)CC[C@]3(C)[C@H](CC[C@@H]4[C@@]5(C)CC[C@H](O[C@@H]6O[C@@H](C)[C@H](O)[C@@H](OC)[C@H]6O)C(C)(C)[C@@H]5CC[C@]43C)[C@@H]12,DLD-1,"cell growth or viability, fluorescence",48 h,10 µM
C[C@@]1(C(=O)O)CC/C=C/[C@H](OC(=O)Nc2ccn([C@@H]3O[C@H](CO)[C@@H](O)C3(F)F)c(=O)n2)CC1,MC-38,"cell growth or viability, MTT",24 h,0.026 µM
CC(C)[C@H](NC(=O)OC(C)(C)C)C(=O)OC1CCC2(C)C(C(O)CC3(C)C2CC(O)C2C(C4(C)CCCC(C)(C)O4)CCC23C)C1(C)C (some centres unmarked),Hep3B,"HRE reporter gene, inhibitor","24 h, hypoxia",1.95 ± 0.15 µM
CCCC[C@@H]1NC(=O)CN(S(C)(=O)=O)CCNC(=O)[C@H](CCCCN)NC(=O)[C@H](CC(C)C)NC(=O)[C@H](CCCCN)NC(=O)[C@H](CC(C)C)NC(=O)[C@H](CCCCN)NC(=O)COC[C@H]2CCCN2C(=O)[C@H](Cc2c[nH]c3ccccc23)NC(=O)[C@H](C)NC(=O)[C@H](Cc2ccccc2)NC(=O)[C@H](C(C)C)NC1=O,NCI-H929,"viability, TO-PRO-3 staining, flow cytometry",,8.6 µM
O=C(NNc1nc(-c2ccccc2)cs1)c1cc2c(ccc3ccccc32)oc1=O,EA.hy 926,"cell growth or viability, SRB",72 h,96.6 µM
CC(C)(C)OC(=O)N[C@@H](Cc1c[nH]c2ccccc12)C(=O)OC1CC2(C)C(CC(O)C3C(C4(C)CCCC(C)(C)O4)CCC32C)C2(C)CCC(O)C(C)(C)C12 (some centres unmarked),Hep3B,"HRE reporter gene, inhibitor","24 h, hypoxia",1.25 ± 0.16 µM
Cc1ccc2oc(-c3c4c(N)n[nH]c(=O)c4nn3-c3ccc(NC(=O)/C=C/CN(C)C)cc3)c(C)c2c1,Ba/F3 TEL-FGFR4,cell proliferation,,< 0.001 µM
CC[C@H](C)[C@H](N)C(=O)Nc1ccc2nc(Cc3c[nH]c4ccccc34)[nH]c2c1,NCI-H358,"cell growth or viability, ATP luminescence",72 h,20.2 µM
CC1=C2[O][Ru-]([Cl])[O+]=C2C=CN1CCCCCCCCCCCCN1C=CC2=[O+][Ru-]([Cl])[O]C2=C1C.Cc1ccc(C(C)C)cc1.Cc1ccc(C(C)C)cc1,RT-4,"cell growth or viability, crystal violet",96 h,6 µM
Cc1ccc(NC(=O)c2c(C)oc3ccc(O)c(CN4CCCCCC4)c23)cc1,JIM1,"cell viability, MTS",72 h,14.1 ± 1.3 µM
CC(=O)Nc1ccc(OC(=O)CCC(=O)[O][Pt-2]23([O]C(=O)CCC(=O)Oc4ccc(NC(C)=O)cc4)([NH2+][C@@H]4CCCC[C@H]4[NH2+]2)[O]C(=O)C(=O)[O]3)cc1,Renca,"cell growth or viability, MTT",48 h,13.1 µM
Brc1ccc(C(c2c[nH]c3ccccc23)c2c[nH]c3ccccc23)cc1,B16,"cell growth or viability, MTT",24 h,9.9 µM
CC(=O)N[C@@H](CCCNC(=N)N)C(=O)N[C@H](CC(=O)N[C@@H](Cc1ccccc1)C(N)=O)c1cccc2ccccc12,SK-BR-3 (HER2-overexpressing),,,9.75 ± 0.33 µM
CC(=O)NCCCN(C)CCCNc1cccc2c1C(=O)c1cccc(NCCCN(C)CCCNC(C)=O)c1C2=O,SAS,"cell growth or viability, CCK-8",48 h,0.5 µM

# For quick reference, copied from above:
SMILES,cell line,test,setting,IC50
O=C(O)Cc1ccccc1Nc1c(Cl)cccc1Cl.O=C(O)Cc1ccccc1Nc1c(Cl)cccc1Cl.c1cnc2c(c1)ccc1cccnc12.c1cnc2c(c1)ccc1cccnc12,CAL-27,"cytotoxicity, MTT",,3.87 ± 0.04 µM
CC(=O)N[C@@H](CCCNC(=N)N)C(=O)N[C@H](CC(=O)N[C@@H](Cc1ccccc1)C(N)=O)c1cccc2ccccc12,SK-BR-3 (HER2-overexpressing),,,9.75 ± 0.33 µM
COc1cc(CN2CCN(c3ccc([N+](=O)[O-])cc3)CC2)c2cc3[n+](cc2c1O)CCc1cc2c(cc1-3)OCO2,Ca-Ski,"cell growth or viability, SRB",48 h,4.56 mg/L
COc1cc(OC)c(-c2coc3c(CC=C(C)C)c(OC)cc(O)c3c2=O)cc1OC,Huh-7,"cell growth or viability, MTT",24 h,> 100 µM
CCCC[C@@H]1NC(=O)CN(S(C)(=O)=O)CCNC(=O)[C@H](CCCCN)NC(=O)[C@H](CC(C)C)NC(=O)[C@H](CCCCN)NC(=O)[C@H](CC(C)C)NC(=O)[C@H](CCCCN)NC(=O)COC[C@H]2CCCN2C(=O)[C@H](Cc2c[nH]c3ccccc23)NC(=O)[C@H](C)NC(=O)[C@H]([C@@H](C)CC)NC(=O)[C@H](C(C)C)NC1=O,NCI-H929,"viability, TO-PRO-3 staining, flow cytometry",,9.1 µM
COc1ccc(-n2cc(C(=O)OC3CC4(C)C(CC(O)C5C(C6(C)CCCC(C)(C)O6)CCC54C)C4(C)CCC(O)C(C)(C)C34)nn2)cc1 (centres unmarked),Hep3B,"HRE reporter gene, inhibitor","24 h, hypoxia",> 30 µM
CCN(CC)CCO/N=C1/C=C2CCC3C(CC[C@]4(C)/C(=C/c5ccccn5)CCC34)[C@@]2(C)CC1 (some centres unmarked),CEM,"cytotoxicity, alamarBlue",72 h,23.8 µM
C1=[N+]2CCCC[N+]3=Cc4ccc5[n]4[Au-]23[n]2c1ccc2-c1nc2ccccc2nc1-5.F[P-](F)(F)(F)(F)F,colon cancer cell lines,,NCI60 panel mean,10 µM
